Published values gathered from unrelated publications.
Each line is one published result; not all experiments were run side by side. Several values in a cell are separate wells, animals, samples, runs or records.
Target: Serine/threonine-protein kinase 33 (STK33, Homo sapiens, UniProt Q9BYT3)

SMILES	assay	test system	conditions	scale	measurement	value
COc1c(OCCCN2CCOCC2)ccc2c1N=C(NC(=O)c1cnc(N)nc1)N1CCN=C21	enzyme activity, inhibitor	–	1 µM	–	remaining activity	105%
COc1ccc(NC(=O)Nc2ccc3c(c2)C(=O)N(C(C)CO)CC(C)C(CN(C)Cc2ccc4c(c2)OCO4)O3)cc1 (stereo not drawn)	kinase activity, KinaseProfiler	–	0.03 µM, species human	reference: control	remaining activity	96%
CCn1cc(C(=O)O)c(=O)c2c(N)c(F)c(NC3CCCCC3)cc21	kinase activity	–	0.1 µM, with: ATP at Km	–	inhibition	-4.5%
NC(=O)C[C@H]1CCc2sc3ncnc(O[C@H]4CC[C@H](N5CCOCC5)CC4)c3c21	enzyme activity, inhibitor	–	10 µM	–	inhibition	15%
Cc1cnc2nc1Nc1cccc(c1)COC/C=C/COCc1cc(ccc1OCCN1CCOCC1)N2	binding, competition with immobilised ligand	–	0.1 µM	–	remaining binding	86%
Cc1ccc(C(=O)Nc2ccc(CN3CCN(C)CC3)c(C(F)(F)F)c2)cc1C#Cc1cnc2cccnn12	target engagement, NanoBRET	human cells	–	–	upper asymptote	-1.3
Nc1ncc(-c2cc(-c3cnn(CC(F)(F)F)c3)ncc2F)nc1C(=O)NC1CNCC(F)C1 (stereo not drawn)	enzyme activity	–	1 µM	reference: DMSO control	remaining activity	88.5%
COc1cc(Nc2nccc(-c3cnn4nc(OC)ccc34)n2)cc(C(F)(F)F)c1	binding, competition with immobilised ligand	–	1 µM	–	remaining binding	100%
COc1c(Cl)cccc1Nc1c(-c2ccncc2C#C[C@@]2(C)CCCN2C(=O)/C=C/CN(C)C)[nH]c2c1C(=O)NCC2	binding, competition with immobilised ligand	–	3 µM	–	remaining binding	100%
COCC12C(=O)NC3C4(C(OC)CC1O)C1CC5(O)C(OC)C(O)C(OC(C)=O)(C1C5OC(=O)c1ccccc1)C3(O)C(OC)C24 (stereo not drawn)	kinase activity, inhibitor, ProQinase kinase profiling	–	25 µM	reference: control	remaining activity	98% and 94%
O=C(Cc1ccc(OCc2ccccc2)cc1)NC1(C(=O)O)CCN(C(=O)c2ccc(-c3cccc(Cl)c3)cc2)CC1	enzyme activity, inhibitor	–	10 µM	–	activity vs control	121%
O=C=[N][Ru-4]123([n]4c5ccc(O)cc5c5c6c(c7cc(F)c[n+]1c7c54)C(=O)NC6=O)[S+]1CC[S+]2CC[S+]3CC1 (stereo not drawn)	enzyme activity	–	100 nM, human enzyme, with: 10 µM ATP	reference: untreated	remaining activity	100%
CNC(=O)C[C@H](Cc1ccc(C#N)cc1)NC(=O)c1cc(-c2ccc(CN[C@H](C)c3ccc(C)cc3)o2)ccc1Cl	enzyme activity, inhibitor	–	1 µM	–	activity vs control	99%
CNC(=O)C1CCN(c2cc(C)c(F)cc2NC(=O)c2ccc(-c3cc(O)ccc3C)c(C)c2)CC1	binding, competition with immobilised ligand	–	1 µM	–	remaining binding	81%
C=CC(=O)N1Cc2nc(-c3cc(-c4cc(Cl)cnc4Cl)c(F)cc3F)n(-c3ccncn3)c2C1	cell-free assay, inhibitor	–	1 µM	–	inhibition	-1.3%

A few entries again:
SMILES	assay	test system	conditions	scale	measurement	value
COc1c(Cl)cccc1Nc1c(-c2ccncc2C#C[C@@]2(C)CCCN2C(=O)/C=C/CN(C)C)[nH]c2c1C(=O)NCC2	binding, competition with immobilised ligand	–	3 µM	–	remaining binding	100%
Cc1ccc(C(=O)Nc2ccc(CN3CCN(C)CC3)c(C(F)(F)F)c2)cc1C#Cc1cnc2cccnn12	target engagement, NanoBRET	human cells	–	–	upper asymptote	-1.3
